{"data": "Measured values of several laboratories", "note": "Parts stem from different laboratories: compare values within a part only. Positions count from the first letter of the parent shown.", "sequence of UniProt P10721 (whole entry, unmodified, looked up)": "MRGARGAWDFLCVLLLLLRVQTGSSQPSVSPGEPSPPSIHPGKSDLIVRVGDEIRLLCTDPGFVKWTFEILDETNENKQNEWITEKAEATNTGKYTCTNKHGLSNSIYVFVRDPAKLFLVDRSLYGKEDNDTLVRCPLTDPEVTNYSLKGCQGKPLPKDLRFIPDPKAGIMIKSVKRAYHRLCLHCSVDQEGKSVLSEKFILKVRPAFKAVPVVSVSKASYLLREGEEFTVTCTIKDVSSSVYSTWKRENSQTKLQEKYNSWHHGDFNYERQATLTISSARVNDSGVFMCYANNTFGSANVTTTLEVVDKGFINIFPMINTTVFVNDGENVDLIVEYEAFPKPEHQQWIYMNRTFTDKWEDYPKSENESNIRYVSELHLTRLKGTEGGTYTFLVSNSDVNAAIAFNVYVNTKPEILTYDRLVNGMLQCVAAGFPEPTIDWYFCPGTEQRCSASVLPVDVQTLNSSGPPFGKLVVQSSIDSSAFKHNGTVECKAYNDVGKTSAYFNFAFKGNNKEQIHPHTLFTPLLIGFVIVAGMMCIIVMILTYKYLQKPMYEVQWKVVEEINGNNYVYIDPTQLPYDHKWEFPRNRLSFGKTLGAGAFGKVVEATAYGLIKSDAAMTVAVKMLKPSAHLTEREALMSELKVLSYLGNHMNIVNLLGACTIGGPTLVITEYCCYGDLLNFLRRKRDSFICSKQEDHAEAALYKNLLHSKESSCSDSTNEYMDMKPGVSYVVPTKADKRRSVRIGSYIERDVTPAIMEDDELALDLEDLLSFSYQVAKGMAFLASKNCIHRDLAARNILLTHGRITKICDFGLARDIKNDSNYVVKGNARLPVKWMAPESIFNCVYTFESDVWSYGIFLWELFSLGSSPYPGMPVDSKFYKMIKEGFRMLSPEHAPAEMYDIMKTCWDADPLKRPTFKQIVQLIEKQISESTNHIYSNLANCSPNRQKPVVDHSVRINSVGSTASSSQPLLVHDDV", "sequence of UniProt O14578 (whole entry, looked up)": "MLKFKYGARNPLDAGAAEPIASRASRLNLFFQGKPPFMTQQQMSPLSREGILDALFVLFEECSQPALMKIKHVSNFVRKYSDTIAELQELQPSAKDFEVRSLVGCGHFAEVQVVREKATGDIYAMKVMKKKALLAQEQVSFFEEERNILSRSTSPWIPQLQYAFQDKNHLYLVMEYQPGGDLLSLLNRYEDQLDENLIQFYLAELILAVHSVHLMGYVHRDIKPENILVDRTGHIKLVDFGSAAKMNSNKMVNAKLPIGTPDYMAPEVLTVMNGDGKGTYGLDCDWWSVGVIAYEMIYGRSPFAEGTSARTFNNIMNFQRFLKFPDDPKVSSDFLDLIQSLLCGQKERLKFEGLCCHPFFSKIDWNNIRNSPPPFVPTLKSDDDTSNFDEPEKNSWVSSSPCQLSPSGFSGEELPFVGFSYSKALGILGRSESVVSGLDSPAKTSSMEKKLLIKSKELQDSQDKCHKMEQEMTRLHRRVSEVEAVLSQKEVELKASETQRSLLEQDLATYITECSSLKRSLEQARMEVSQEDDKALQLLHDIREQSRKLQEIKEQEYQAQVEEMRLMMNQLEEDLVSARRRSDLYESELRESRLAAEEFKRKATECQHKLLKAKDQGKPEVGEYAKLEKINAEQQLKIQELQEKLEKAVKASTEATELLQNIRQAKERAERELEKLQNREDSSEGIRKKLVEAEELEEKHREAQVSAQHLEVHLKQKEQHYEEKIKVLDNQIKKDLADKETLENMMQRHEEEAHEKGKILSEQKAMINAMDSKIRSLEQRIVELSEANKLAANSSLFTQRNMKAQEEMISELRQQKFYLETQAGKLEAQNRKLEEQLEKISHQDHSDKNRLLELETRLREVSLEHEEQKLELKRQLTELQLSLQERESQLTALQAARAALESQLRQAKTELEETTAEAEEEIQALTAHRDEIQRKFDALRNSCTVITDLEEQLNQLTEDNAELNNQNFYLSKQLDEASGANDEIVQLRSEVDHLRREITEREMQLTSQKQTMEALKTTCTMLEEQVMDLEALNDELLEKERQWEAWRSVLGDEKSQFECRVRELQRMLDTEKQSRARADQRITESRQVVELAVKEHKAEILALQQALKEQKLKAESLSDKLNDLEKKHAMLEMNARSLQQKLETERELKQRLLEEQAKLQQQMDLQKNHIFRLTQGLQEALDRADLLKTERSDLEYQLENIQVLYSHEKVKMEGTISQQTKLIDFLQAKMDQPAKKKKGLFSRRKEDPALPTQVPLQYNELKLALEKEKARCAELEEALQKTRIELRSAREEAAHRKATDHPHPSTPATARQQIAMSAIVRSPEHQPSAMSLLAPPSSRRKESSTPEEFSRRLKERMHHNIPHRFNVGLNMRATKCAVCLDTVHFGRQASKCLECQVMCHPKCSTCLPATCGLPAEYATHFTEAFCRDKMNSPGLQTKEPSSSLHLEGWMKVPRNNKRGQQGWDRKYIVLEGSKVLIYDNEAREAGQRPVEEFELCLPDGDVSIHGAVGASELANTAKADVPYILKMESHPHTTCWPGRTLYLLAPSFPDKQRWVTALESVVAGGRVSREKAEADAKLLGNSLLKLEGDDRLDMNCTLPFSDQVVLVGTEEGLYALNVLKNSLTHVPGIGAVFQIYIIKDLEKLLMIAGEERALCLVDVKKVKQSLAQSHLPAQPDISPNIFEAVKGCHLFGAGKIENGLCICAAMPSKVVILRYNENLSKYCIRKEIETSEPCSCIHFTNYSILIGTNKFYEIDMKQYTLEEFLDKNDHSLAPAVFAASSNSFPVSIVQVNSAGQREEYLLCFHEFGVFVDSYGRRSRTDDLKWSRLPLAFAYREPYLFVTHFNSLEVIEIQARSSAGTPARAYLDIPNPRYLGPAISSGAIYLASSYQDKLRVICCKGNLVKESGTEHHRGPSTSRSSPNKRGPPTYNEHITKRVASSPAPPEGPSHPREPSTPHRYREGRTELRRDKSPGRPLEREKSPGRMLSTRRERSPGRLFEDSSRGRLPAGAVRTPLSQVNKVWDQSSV", "sequence of UniProt Q08345 (whole entry, looked up)": "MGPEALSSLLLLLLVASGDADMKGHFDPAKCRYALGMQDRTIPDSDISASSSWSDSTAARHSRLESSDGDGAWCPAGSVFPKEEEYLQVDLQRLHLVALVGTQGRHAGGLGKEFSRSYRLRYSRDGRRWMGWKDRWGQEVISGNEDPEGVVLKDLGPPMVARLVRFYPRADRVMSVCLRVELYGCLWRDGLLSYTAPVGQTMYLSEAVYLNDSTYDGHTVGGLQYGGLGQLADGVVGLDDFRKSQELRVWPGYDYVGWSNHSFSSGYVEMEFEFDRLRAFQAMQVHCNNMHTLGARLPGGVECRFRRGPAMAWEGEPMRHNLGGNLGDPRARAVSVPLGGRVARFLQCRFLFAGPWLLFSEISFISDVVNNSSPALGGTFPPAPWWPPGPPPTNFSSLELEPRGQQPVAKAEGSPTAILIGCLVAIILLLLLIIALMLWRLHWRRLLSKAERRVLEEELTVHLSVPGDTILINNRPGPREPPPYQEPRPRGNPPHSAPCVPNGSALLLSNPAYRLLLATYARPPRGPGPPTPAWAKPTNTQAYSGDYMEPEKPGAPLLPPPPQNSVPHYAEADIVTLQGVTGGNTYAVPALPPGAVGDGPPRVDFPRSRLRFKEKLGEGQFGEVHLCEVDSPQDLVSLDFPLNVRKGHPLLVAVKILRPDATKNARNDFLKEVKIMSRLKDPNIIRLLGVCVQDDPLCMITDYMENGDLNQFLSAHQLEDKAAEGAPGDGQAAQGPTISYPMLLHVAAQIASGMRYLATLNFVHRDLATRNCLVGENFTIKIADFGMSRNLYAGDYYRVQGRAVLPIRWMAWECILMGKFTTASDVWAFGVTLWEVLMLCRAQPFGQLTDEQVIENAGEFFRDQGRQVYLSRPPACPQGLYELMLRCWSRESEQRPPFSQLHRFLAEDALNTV", "sequence of UniProt Q13546 (whole entry, looked up)": "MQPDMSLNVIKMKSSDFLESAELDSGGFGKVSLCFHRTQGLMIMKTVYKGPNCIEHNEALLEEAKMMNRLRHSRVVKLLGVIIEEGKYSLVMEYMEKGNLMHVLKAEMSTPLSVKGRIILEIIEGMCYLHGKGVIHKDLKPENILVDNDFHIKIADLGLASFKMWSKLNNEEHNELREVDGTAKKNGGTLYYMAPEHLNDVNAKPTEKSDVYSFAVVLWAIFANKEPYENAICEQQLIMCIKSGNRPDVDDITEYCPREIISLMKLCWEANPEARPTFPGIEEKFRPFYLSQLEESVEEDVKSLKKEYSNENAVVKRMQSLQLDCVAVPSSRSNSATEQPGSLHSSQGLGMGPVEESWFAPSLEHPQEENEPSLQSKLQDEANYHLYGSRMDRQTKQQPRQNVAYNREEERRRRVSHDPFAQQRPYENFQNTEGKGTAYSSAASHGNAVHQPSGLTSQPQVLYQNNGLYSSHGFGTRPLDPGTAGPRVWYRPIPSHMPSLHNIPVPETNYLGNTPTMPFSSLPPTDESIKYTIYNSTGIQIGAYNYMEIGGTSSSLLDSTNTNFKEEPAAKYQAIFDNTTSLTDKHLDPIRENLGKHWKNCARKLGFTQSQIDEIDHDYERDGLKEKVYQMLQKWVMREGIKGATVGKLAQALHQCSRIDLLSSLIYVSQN"}
{"data": "Set 1", "SMILES": "CS(=O)(=O)NCC[C@H](NC(=O)c1cncc2c1cnn2-c1ccc(F)cc1)c1ccnc(S(C)(=O)=O)c1", "effect on": "cell-free assay", "technique": "competition with immobilised ligand", "tested at": "1 µM"}
{"target": "KIT (Homo sapiens, UniProt P10721, T670I/V559D)", "remaining binding": "100%"}
{"target": "MAP4K5 (Homo sapiens, UniProt Q9Y4K4)", "remaining binding": "83%"}
{"target": "STK3 (Homo sapiens, UniProt Q13188)", "remaining binding": "100%"}
{"target": "Tyrosine-protein kinase ABL1, phosphorylated (ABL1, Homo sapiens, UniProt P00519, M351T)", "remaining binding": "100%"}
{"target": "DDR1 (Homo sapiens, UniProt Q08345)", "remaining binding": "92%"}
{"target": "PIK3CA (Homo sapiens, UniProt P42336, H1047Y)", "remaining binding": "100%"}
{"target": "EGFR (Homo sapiens, UniProt P00533, L861Q)", "remaining binding": "100%"}
{"target": "KIT (Homo sapiens, UniProt P10721, L576P)", "remaining binding": "100%"}
{"target": "EPHB1 (Homo sapiens, UniProt P54762)", "remaining binding": "88%"}
{"target": "PIK3CD (Homo sapiens, UniProt O00329)", "remaining binding": "100%"}
{"target": "RIPK1 (Homo sapiens, UniProt Q13546)", "remaining binding": "99%"}
{"target": "CIT (Homo sapiens, UniProt O14578)", "remaining binding": "73%"}
{"target": "SGK3 (Homo sapiens, UniProt Q96BR1)", "remaining binding": "100%"}
{"target": "KIT (Homo sapiens, UniProt P10721, D816V)", "remaining binding": "94%"}
{"target": "MAP3K11 (Homo sapiens, UniProt Q16584)", "remaining binding": "100%"}
{"target": "TNIK (Homo sapiens, UniProt Q9UKE5)", "remaining binding": "100%"}
{"data": "Set 2", "target": "Ras GTPase-activating protein-binding protein 1, RRM domain (G3BP1, Homo sapiens, UniProt Q13283)", "technique": "RNA Bind-n-Seq", "molecule type": "RNA", "sample": "in vitro", "tested at": "1 µM", "notes": "whole 134-nt RNA, ends assumed", "added": "150 mM KCl", "baseline": "input library", "direction": "higher = stronger binding", "sequence of UniProt Q13283 (whole entry, looked up)": "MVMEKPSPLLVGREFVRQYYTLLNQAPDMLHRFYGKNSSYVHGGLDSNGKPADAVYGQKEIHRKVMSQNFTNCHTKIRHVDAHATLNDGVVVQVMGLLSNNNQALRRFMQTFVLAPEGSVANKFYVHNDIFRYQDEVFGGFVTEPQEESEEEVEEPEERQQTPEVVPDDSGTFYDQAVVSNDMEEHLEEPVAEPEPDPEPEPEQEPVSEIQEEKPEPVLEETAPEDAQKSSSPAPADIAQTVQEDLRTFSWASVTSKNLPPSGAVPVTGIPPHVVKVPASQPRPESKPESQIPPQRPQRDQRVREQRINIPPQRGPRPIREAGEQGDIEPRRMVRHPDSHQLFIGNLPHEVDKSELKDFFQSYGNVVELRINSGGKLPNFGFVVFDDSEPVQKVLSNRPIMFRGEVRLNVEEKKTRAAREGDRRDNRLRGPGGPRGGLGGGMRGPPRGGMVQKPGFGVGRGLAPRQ"}
{"Oligonucleotide": "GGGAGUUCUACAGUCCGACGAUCACCAUGCAGGUGGGCAUCUUUGGGAAGUGGGGCAAGGGGGGGAUAGGGUGGGGGGUAACACUUUGGGAACAGGUGGUCCCAGGUCGUUUCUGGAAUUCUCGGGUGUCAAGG", "log2 enrichment": 0.936}
{"Oligonucleotide": "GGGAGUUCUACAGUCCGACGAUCUGGCCCUGGUGGCAUGCGGGGAGGAAGAGGUGGCCUCAUGGAUCGUGGUGGUCCCGGUGGAAUGUUCAGAGGUCGCCGUGGUGGAGACAGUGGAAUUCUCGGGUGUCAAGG", "log2 enrichment": 1.58}
{"Oligonucleotide": "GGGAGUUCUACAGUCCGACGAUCACCAUGCAGGUGGGCAUCUUUGGGAAGUGGGGCAAGGGGGGGAUAGGGAGGGGGGUAACACUGUGGGAACAGGUGGUCCCAGGUCGUUUCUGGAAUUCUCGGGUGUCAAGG", "log2 enrichment": 1.3}
{"Oligonucleotide": "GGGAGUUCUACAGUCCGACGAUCUGUGCUACACAUCGUAUGUACCGAAUCGGGGAAAAAAAGGGGAAAAAGGGGAAAAAAAGGGGAAAGUAUUAUGUUACGCCGUUCGGAUCUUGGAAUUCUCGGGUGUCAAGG", "log2 enrichment": 1.08}
{"Oligonucleotide": "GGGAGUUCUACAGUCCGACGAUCUCCCUGAGACGGCGGGCAACAGCAUCGGCAGGAACGCCAUGGCCGUCCCCUCCCAGCUCUUACCUUACCAUCGACCUCACAGACGACACAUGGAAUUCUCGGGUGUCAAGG", "log2 enrichment": -0.329}
{"Oligonucleotide": "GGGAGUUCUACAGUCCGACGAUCAACUGGAAGAACAGACCCGUAGGGCUCUGGAACUUGAGCAGGAACGGAAGCGUGCCCAGAGCGAGGCUGAAAAGCUGGCCAAGGAGCGUCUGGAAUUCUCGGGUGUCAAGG", "log2 enrichment": -0.307}
{"Oligonucleotide": "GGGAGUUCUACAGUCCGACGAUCGGAUCAAAGCAAGUUGGAGAAACAUCAGCACCUGGAGACACCUUAGAUGGCACACCUCGUACUCUCAAUACUGUCUUUGAUUUCCCACCAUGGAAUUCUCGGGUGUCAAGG", "log2 enrichment": -0.0485}
{"Oligonucleotide": "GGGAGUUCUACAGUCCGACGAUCAGUCCUGUGCUACACAUCGUAUGUACCGAAUCGGGGAAAAAGGAAAAAGGGAAAAAGGAAAGUAUUAUGUUACGCCGUUCGGAUCUGCACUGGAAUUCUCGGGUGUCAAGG", "log2 enrichment": -0.123}
{"data": "Set 3", "target": "CCNF, cyclin fold, Cln2 fusion (human)", "technique": "yeast growth competition, sequencing", "sample": "yeast", "notes": "strong parent motif", "baseline": "not given", "direction": "higher = stronger binding", "starting sequence": "PKN2 docking peptide (human); VSAVRKLDFSDTM"}
{"Variant": "K6L", "normalised enrichment score": 4.97}
{"Variant": "D11K", "normalised enrichment score": 7.41}
{"Variant": "L7R", "normalised enrichment score": 0.23}
{"Variant": "L7T", "normalised enrichment score": -0.237}
{"Variant": "S10W", "normalised enrichment score": 7.61}
{"Variant": "V4H", "normalised enrichment score": 6.35}
{"Variant": "K6W", "normalised enrichment score": 6.78}
{"Variant": "F9K", "normalised enrichment score": 0.314}
{"data": "Set 4", "Compound": "Cn1cnc2cc3c(Nc4cccc(Br)c4)ncnc3cc21", "effect on": "enzyme activity", "action": "inhibitor", "tested at": "0.5 µM", "baseline": "control"}
{"target": "CSNK1G3 (Homo sapiens, UniProt Q9Y6M4)", "remaining activity [%]": 88.1}
{"target": "ACVR1B (Homo sapiens, UniProt P36896)", "remaining activity [%]": 111}
{"target": "MAP3K5 (Homo sapiens, UniProt Q99683)", "remaining activity [%]": 110}
{"target": "TAOK2 (Homo sapiens, UniProt Q9UL54)", "remaining activity [%]": 103}
{"target": "GSK3B (Homo sapiens, UniProt P49841)", "remaining activity [%]": 101}
{"target": "WEE1 (Homo sapiens, UniProt P30291)", "remaining activity [%]": 106}
{"target": "GRK7 (Homo sapiens, UniProt Q8WTQ7)", "remaining activity [%]": 106}
{"target": "MST1R (Homo sapiens, UniProt Q04912)", "remaining activity [%]": 96.5}
{"target": "MAPKAPK2 (Homo sapiens, UniProt P49137)", "remaining activity [%]": 104}
{"target": "MAPK3 (Homo sapiens, UniProt P27361)", "remaining activity [%]": 109}
{"target": "EPHA3 (Homo sapiens, UniProt P29320)", "remaining activity [%]": 82.9}
{"target": "FGFR1 (Homo sapiens, UniProt P11362)", "remaining activity [%]": 89.6}
{"target": "TEK (Homo sapiens, UniProt Q02763)", "remaining activity [%]": 98.9}
